Results pooled from the literature.
Numbered parts are unrelated; each lists some results of a single study.

Sample 1
Target: RING finger protein unkempt homolog, zinc fingers 1-6, GST-SBP tag (UNK, Homo sapiens, UniProt Q9C0B0, residues 30-357)
Method: RNA Bind-n-Seq
Form: RNA
Medium: in vitro
Tested at: not given
Notes: RNA with constant flanks, human-mouse chimeric sites, ends assumed
Relative to: input RNA pool
Reading: higher = stronger binding
Target sequence (chain): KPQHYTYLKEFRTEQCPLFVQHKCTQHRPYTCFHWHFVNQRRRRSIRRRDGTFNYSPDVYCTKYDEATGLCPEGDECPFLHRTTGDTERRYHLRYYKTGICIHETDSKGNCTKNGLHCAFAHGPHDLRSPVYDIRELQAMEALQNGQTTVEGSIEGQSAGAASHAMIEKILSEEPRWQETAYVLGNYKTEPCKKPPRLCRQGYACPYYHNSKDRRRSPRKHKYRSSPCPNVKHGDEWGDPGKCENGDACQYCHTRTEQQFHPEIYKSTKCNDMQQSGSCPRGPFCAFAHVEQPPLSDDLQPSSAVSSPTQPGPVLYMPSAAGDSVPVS
Strand | bound/input enrichment
GGGAGUUCUACAGUCCGACGAUCACAGUUAUAUUGUUGAGUUUCAUUUUCAUAUAUUCUUAUGGUGUCUGCUUGCCUGUGACUUCUGGUAAAAUAAAAUAAGCCUUUGAAUUAGCAUGCUCAUGGUAUUUAACAUUUUCUAAACAACAGAGGAUUGAGCAUCA | 0.595 ratio
GGGAGUUCUACAGUCCGACGAUCCGCUUGGAUGAGGCGGGUGUCACAGAUGAAGUGCUAGAUUCUGCCAUGCAAGCCUUCCUUCUGGAGGUCAUUGUUAAGCAUGGGGAGCCAGCCCCUUAUUUAUGUAACAAAGAUCCGUUUCAACAGAGGAUUGAGCAUCA | 0.0938 ratio
GGGAGUUCUACAGUCCGACGAUCACUCUUGACUCUUUCCAUCCUCUUCCUUUCCCUCUUGAUAUUCAAGGCCAUGAAUCCCAAAAUAACAGUCUUAGUGGCUAGCACCCAAACAGAGGUGGGUGCCAUCCACCCCAGUGUCUCCAACAGAGGAUUGAGCAUCA | 0.475 ratio
GGGAGUUCUACAGUCCGACGAUCUCUUAACUUAUUCAUUUAACUUAUUUUUAUAGCUAGAUAAAUAUUGUUAGUCUUAGAGAGUAGUUCACAUUUUUUGAAAAGCAUGCUCUCCCUGUCCAUUUGUCUUAUAACAUGACCCAGCAACAGAGGAUUGAGCAUCA | 26.6 ratio

Sample 2
Target: Replicase polyprotein 1ab, main protease (rep, Severe acute respiratory syndrome coronavirus 2, UniProt P0DTD1)
Observed: enzyme activity
Mode: inhibitor
Tested at: 20 µM
Notes: hit confirmation
Structure (SMILES) | inhibition [%]
CN1C(=O)C(N2CCCCC2)S/C1=C\C(=O)O (stereo not shown) | 72.9
N#Cc1c(-c2ccccc2)cc(-c2cc(Br)ccc2O)[nH]c1=O | 7.9
C[C@H]1COC2=C1C(=O)C(=O)c1c2ccc2c1CCCC2(C)C | 92.3

Sample 3
Target: Histone acetyltransferase KAT6A, both winged helices, GST fusion (KAT6A, Homo sapiens, UniProt Q92794, residues 1-181)
Method: protein binding microarray
Form: double-stranded DNA, one strand shown
Medium: in vitro
Tested at: not given
Notes: 8-mer, flanks averaged, mean of 2 arrays, mostly near background
Relative to: not given
Reading: higher = stronger binding
Construct (chain): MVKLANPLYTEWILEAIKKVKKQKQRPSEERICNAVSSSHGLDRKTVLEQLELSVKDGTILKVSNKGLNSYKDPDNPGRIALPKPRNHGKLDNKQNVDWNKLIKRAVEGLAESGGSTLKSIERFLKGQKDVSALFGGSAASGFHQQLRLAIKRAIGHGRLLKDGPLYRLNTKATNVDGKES
Strand | E-score
AAAGAGAG | -0.0555
GCGGGCAC | 0.197
CATTAAAC | 0.0374
ACACGGTC | 0.195
AGCTTTGA | -0.103
AACGGTCA | 0.17
ACATTAGC | 0.0678
ACTCACCG | 0.0197

Sample 4
Target: Replicase polyprotein 1ab, nsp13 helicase (rep, Severe acute respiratory syndrome coronavirus 2, UniProt P0DTD1)
Mode: inhibitor
Tested at: 20 µM
SMILES | inhibition [%]
O=C(O)c1ccc(S(=O)(=O)N(Cc2ccc(OC(F)(F)F)cc2)c2ncc(C(F)(F)F)cc2Cl)cc1 | 9.6
CN1CCN(c2ncc(-c3cc(Cl)cc(Cl)c3Cl)c(N)n2)CC1 | 3.5
NC(=O)c1ccc(F)c2c1C[C@@H](N(C1CCC1)C1CCC1)CO2 | 5.32
Nc1cc(C(F)(F)F)c(-c2cc(N3CCOCC3)nc(N3CCOCC3)n2)cn1 | 2.9
O=C(CCCCCCCn1cc(-c2cccnc2)nn1)Nc1ccccc1-c1ccccc1 | -1.1
CC1=C(/C=C/C(C)=C/C=C/C(C)=C/C(=O)O)C(C)(C)CCC1 | 22.7
COC(=O)[C@H](NC(=O)c1cc(-c2ccccc2)nc2ccccc12)c1ccccc1 | 0.19
CN(C)[C@@H]1CCc2[nH]c3ccc(NC(=O)c4ccc(F)cc4)cc3c2C1 | 1.49
Cc1cc(C)c(S(=O)(=O)Nc2cccc(C(F)(F)F)c2)c(C)c1 | 13
CN(C)c1ccc2c(c1)Sc1cc(N(C)C)ccc1N2 | 71.6
c1ccc(C(NCCNC(c2ccccc2)c2ccccc2)c2ccccc2)cc1 | 7.56
Nc1nc(CC(=O)Nc2ccc(CCNC[C@H](O)c3ccccc3)cc2)cs1 | 1.46
COc1ccccc1Oc1c(NS(=O)(=O)c2ccc(C)cn2)nc(-c2ccncc2)nc1OC | -3.06
CC(C)NC(=O)COc1cccc(-c2nc(Nc3ccc4[nH]ncc4c3)c3ccccc3n2)c1 | 6.46
COc1cccc(OC)c1OCCNCC1COc2ccccc2O1 (stereo not shown) | 8.62
CC(C)(O)C(Cl)(Cl)Cl | 1.9
CN1C(=O)C(F)=C[C@]2(C)[C@H]3CC[C@]4(C)[C@@H](C(=O)NCc5nc6cccnc6[nH]5)CC[C@H]4[C@@H]3CC[C@@H]12 | 4.96
C[C@H](NC[C@H](O)CP(=O)(O)Cc1ccccc1)c1ccc(Cl)c(Cl)c1 | -3.53
Clc1cccc(SC2CCNCC2)n1 | 5.58
N[C@@H](CC(=O)N1CCn2c(nnc2C(F)(F)F)C1)Cc1[nH]nc2c(F)c(F)ccc12 | 1.15
CC1(C)CNc2cc(NC(=O)c3cccnc3NCc3ccncc3)ccc21 | -2.13
CNC(=O)[C@@H](c1ccccc1)N1CCc2cc(OC)c(OC)cc2[C@@H]1CCc1ccc(C(F)(F)F)cc1 | 2.63
C[C@H](NCc1ccc(OCc2ccccc2F)cc1)C(N)=O | 2.45
CC[C@H](NC(=O)c1c(C)c(-c2ccccc2)nc2ccccc12)c1ccccc1 | 4.44
C[N+](C)(C)CC#CCN1CCCC1=O | 6.83

Sample 5
Cell line: HEK-293T/ACE2
Observed: pseudovirus infection
Organism: VSV pseudotyped with SARS-CoV-2 spike
Tested at: 10 µM
Time: 16 h
Relative to: vehicle-treated
SMILES | GFP-positive cells [%]
O=NN(CCCl)C(=O)NC1CCCCC1 | 66.4
Nc1c(CC(=O)O)cccc1C(=O)c1ccc(Br)cc1 | 77.3
CCCCC1=NC2(CCCC2)C(=O)N1Cc1ccc(-c2ccccc2-c2nnn[nH]2)cc1 | 62.5
CC(S)C(=O)NCC(=O)O (stereo not shown) | 77.5

Sample 6
Target: Sal-like protein 4, full length isoform A (SALL4, Homo sapiens, UniProt Q9UJQ4, residues 1-1053)
Chain of UniProt Q9UJQ4 (whole entry, looked up): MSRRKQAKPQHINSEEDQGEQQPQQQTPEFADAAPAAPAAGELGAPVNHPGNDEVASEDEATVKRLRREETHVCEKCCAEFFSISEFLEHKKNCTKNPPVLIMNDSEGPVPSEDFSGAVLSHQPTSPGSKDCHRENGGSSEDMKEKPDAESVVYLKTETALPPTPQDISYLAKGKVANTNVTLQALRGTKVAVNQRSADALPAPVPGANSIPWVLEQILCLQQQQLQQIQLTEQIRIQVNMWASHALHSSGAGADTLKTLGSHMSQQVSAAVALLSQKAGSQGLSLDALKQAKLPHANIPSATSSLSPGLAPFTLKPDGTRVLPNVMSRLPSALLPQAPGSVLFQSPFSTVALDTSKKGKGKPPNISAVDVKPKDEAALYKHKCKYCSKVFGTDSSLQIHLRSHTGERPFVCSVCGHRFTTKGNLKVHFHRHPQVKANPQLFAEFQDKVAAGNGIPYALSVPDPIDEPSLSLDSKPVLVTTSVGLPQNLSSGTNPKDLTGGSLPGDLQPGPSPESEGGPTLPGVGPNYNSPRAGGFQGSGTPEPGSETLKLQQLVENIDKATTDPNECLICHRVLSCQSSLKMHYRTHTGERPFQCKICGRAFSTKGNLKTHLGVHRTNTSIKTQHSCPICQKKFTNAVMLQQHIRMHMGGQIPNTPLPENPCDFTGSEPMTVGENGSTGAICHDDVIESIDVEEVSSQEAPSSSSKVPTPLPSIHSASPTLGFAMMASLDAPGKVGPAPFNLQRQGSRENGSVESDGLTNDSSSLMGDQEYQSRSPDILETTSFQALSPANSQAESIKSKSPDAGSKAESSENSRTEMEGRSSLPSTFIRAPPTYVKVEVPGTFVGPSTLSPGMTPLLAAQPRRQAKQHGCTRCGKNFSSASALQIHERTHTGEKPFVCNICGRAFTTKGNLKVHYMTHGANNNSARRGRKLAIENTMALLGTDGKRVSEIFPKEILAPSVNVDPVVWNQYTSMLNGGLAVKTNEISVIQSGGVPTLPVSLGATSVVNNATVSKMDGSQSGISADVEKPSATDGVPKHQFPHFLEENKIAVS
Method: universal PBM
Form: double-stranded DNA, one strand shown
Medium: in vitro
Tested at: 600 nM
Notes: 8-mer, flanks averaged, mean of replicates
Reading: higher = stronger binding
Strand | E-score
AGTTTTGA | 0.142
CACTCCTA | -0.0141
AAAATTCG | 0.255
CAACCTCG | -0.112
AATTTCAA | 0.283
AGCTCTAC | -0.165
AGGAGCCC | -0.285
AGAAGCCC | -0.172

A few entries again (sample 4):
SMILES | inhibition [%]
Nc1cc(C(F)(F)F)c(-c2cc(N3CCOCC3)nc(N3CCOCC3)n2)cn1 | 2.9
O=C(CCCCCCCn1cc(-c2cccnc2)nn1)Nc1ccccc1-c1ccccc1 | -1.1
CC1=C(/C=C/C(C)=C/C=C/C(C)=C/C(=O)O)C(C)(C)CCC1 | 22.7
COC(=O)[C@H](NC(=O)c1cc(-c2ccccc2)nc2ccccc12)c1ccccc1 | 0.19
